# Measurements of several laboratories.
# Every numbered part comes from another study and shows a few of its results, in no order. Substitutions count along the parent as printed.

# Sample 1 — technique: protein-binding microarray; form: double-stranded DNA, one strand shown; sample: in vitro; concentration: 940 nM top; notes: 60-bp whole probe; with: salmon DNA 0.4 mg/ml; baseline: random background probes; reading: higher = stronger binding; all sequences stand within: GCCTAGCAC … GTCTTGATTCGCTTGACGCTGCTG
# Target: Interferon regulatory factor 5, full length, phosphomimetic (IRF5, Homo sapiens, UniProt Q13568-2, residues 1-514, S451D/S453D/S456D/S462D)
Oligonucleotide,fitted relative affinity
TTAGGACAGGGACTGGGTTAGTGCTAG,-0.426 z-score
GAGGGACTGGGGACTGGGGACGTGCTA,-0.375 z-score
GAGGGTTTCGGTTTCGGGACGTGCTAG,12.2 z-score
GACGAACTGAGTATCGAGAAGTGCTAG,0.974 z-score
TTAGGTCTCCTTTTACTTTAGTGCTAG,0.779 z-score
TCAGGTATTTTTCTAAAACTGTGCTAG,0.0431 z-score
GACGCTCTCCTTATCCTGACGTGCTAG,0.871 z-score
TTAGGACTGGGGTTCGGTTAGTGCTAG,-0.0586 z-score
TTAGATTTCAGTGCCGATTAGTGCTAG,0.264 z-score
TCACTTCTGTTTTTGCTACTGTGCTAG,1.04 z-score
TTAGGACTGGGGTATCGGGTAGTGCTA,0.993 z-score
GCCGGTCTCGGTTTCGGGACGTGCTAG,7.14 z-score
TTAGTTTCCGGTTTCGGTTAGTGCTAG,10.3 z-score

# Sample 2 — target: CCND3, cyclin fold, Cln2 fusion (human); technique: yeast growth competition, sequencing; sample: yeast; notes: weak parent motif; baseline: not given; reading: higher = stronger binding
# Starting sequence: RBL1 docking peptide (human); GSAKRRLFGEDPP
Variant,normalised enrichment score
GSAKRRMFGEDPP [L7M],0.155
GSAKRRLDGEDPP [F8D],0.197
WSAKRRLFGEDPP [G1W],0.142
GSAKRRLFFEDPP [G9F],0.24
GSAKHRLFGEDPP [R5H],0.206
GSWKRRLFGEDPP [A3W],0.166
GSAKRRLFGEDKP [P12K],0.153
GSAKLRLFGEDPP [R5L],0.118
GSAKRRLFVEDPP [G9V],0.181
GSAKRRLFGECPP [D11C],0.157

# Sample 3 — technique: RNA Bind-n-Seq; form: RNA; sample: in vitro; concentration: 365 nM; baseline: no-protein control; reading: higher = stronger binding
# Target: RNA binding protein fox-1 homolog 2, RRM domain, GST-SBP tag (RBFOX2, Homo sapiens, UniProt O43251-10, residues 100-194)
# Notes: natural RNA segment, single round, ends assumed
# Target sequence (chain): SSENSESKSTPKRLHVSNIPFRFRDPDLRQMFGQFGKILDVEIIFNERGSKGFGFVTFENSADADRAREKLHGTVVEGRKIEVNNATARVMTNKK
Oligonucleotide,RBNS enrichment (R)
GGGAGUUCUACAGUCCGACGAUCCACCCUUGUCCCUCAGCAACAUCCCAUCUAAGCAUUCCACACUGCAGGGAGGAGUGGUACUUAAGCUCCCCUGCCUUAACCUGGGACCAACCUGACCUAACCUAGGAGGGUGGAAUUCUCGGGUGCCAA,0.597
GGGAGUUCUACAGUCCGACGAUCUUUUUUCUUUUGUGGACCACAGGAAGGAAGAUUUAUUUUGAUAUUGAUACUUUAAAAGGACUUUAUAUUUGUAACAUUGAUGUUAACCAGUUUAUUAGUUUAAAUCAGUAUGGAAUUCUCGGGUGCCAA,0.568
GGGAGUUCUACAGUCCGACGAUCUUUAUGGAGCCUCCAGAACAGAUGCCAUCUUCCUGAAUGUUGACAUGCCAGUGGGUGUGACUCCUUCAUUUUUCCUUCUCCCUUCCCUUUGGACAGUGUUACAGUGAACAUGGAAUUCUCGGGUGCCAA,0.433
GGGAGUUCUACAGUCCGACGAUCAGAUUUGUGUUGAACGAAAACAUUGUGGUUUGGAAAGGAGAAUUCAACAAUUAAUAGUUGAAAUUGUGAGGUUAAUGUUUAAAAAGCUUUACACCUGUUUACAAUUUGGGUGGAAUUCUCGGGUGCCAA,1.01
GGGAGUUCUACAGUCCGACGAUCCAUGCCAGUUCCUGAGCAUCCUUUAUGUGCAUUUGCAUUCUCAGUGGUCCUGCCUGUAUGCUGGUUCACAUCCAUCUUUUCAUCUGCACACUCUUUUUCUCGGCGAAUGCUGGAAUUCUCGGGUGCCAA,0.664
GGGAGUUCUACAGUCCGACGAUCACUUCGGGGACUCAGACGGGGGAGAUCCGGGCCAGUAGCUCCCAUGCCACCUGACUGACAGACGCCUGGGGACAGGCAUAUCCCUGCUCCCCGCAGAGAACACAGAACCCUGGAAUUCUCGGGUGCCAA,0.556
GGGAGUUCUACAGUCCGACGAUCCUGGUCCCCUCCCCCAUCCCCACCACUGAUAUCAUGGGGAGUAAUAGGACCAGAGCGGUAUCUCUGGCACCACACUAGGGACUAUCAGGUAAUAAAAGCUUUGACUCCCUUGGAAUUCUCGGGUGCCAA,0.337
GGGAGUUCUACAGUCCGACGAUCCUCAGUCAAGUCCUGAUCCAUUUCGUCAUGAAGAGAGCAGGACCUUUCCAUUCUAUGAAGGGUGCGUGUUUCUGGUUUCCAGCAGCAGGAUAACAAGUGGGAAUUUACUCUGGAAUUCUCGGGUGCCAA,0.265

# Single results of other studies
Molecule,target,test,test system,setting,how to read,quantity,value
"PhoQ, residues 284 288 289 292 302 303 SCEHLI","PhoP, residues 12 14 15 18 19 VQALL (Escherichia coli, UniProt P23836)","Sort-seq, refers to: YFP reporter",E. coli,"PhoQ-PhoP variant library, with: 10 µM Mg2+","baseline: high Mg2+ state, higher = stronger signaling",fold induction,11

# Excerpt of the above (sample 2):
Variant,normalised enrichment score
GSAKRRLFFEDPP [G9F],0.24
GSAKHRLFGEDPP [R5H],0.206
GSAKLRLFGEDPP [R5L],0.118
WSAKRRLFGEDPP [G1W],0.142
